Assay results of several laboratories.
Compare with care: the assays were run in different laboratories. ± marks the error that the study gave.
Cell line: human PBMC

SMILES = C=C(Br)C(=O)Nc1ccc(/C=C/C(=O)Nc2cc(OC)c(OC)c(OC)c2)cc1; test = cell growth or viability, MTT; setting = 72 h; quantity = IC50; result = 3500 to 4000 nM
SMILES = N#CC(=C(/N)Sc1ccccc1N)/C(C#N)=C(/N)Sc1ccccc1N; test = T cell expansion, resazurin; setting = 7 days, with: concanavalin A 2 µg/mL; quantity = EC50; result = 1920 nM
SMILES = Nc1nc2ccccc2c2c1nc(CCCc1nc3c(N)nc4ccccc4c3n1Cc1ccccc1)n2Cc1ccccc1; test = cytokine and chemokine release, antagonist; setting = 12 h, with: CL075 10 µg/mL; quantity = IC50; result = 50 to 300 nM
SMILES = CCc1cc(Nc2nccc(-c3c(-c4ccc(OC)c(C(=O)Nc5c(F)cccc5F)c4)nc4ccccn34)n2)c(OC)cc1N1CCC(N2CCN(S(C)(=O)=O)CC2)CC1; test = T cell expansion, resazurin; setting = 7 days, with: concanavalin A 2 µg/mL; quantity = EC50; result = 13900 nM
SMILES = O=C(N=P12CN3CN(CN(C3)C1)C2)c1ccccc1Br; test = cytotoxicity, MTT; setting = 24 h, 1% DMSO; quantity = IC50; result = > 500000 nM
SMILES = N/C(=N\O)c1ccc(-c2cc(CNc3cccc4cccnc34)on2)cc1; test = cell growth or viability, MTS; quantity = IC50; result = > 100000 nM
SMILES = Cc1ccc(NC(=O)c2ccc3c(c2)CC[C@@H]3N2CCN(C)CC2)cc1C#Cc1cnc2ccc(Cl)nn12; test = cell growth; setting = 72 h; quantity = IC50; result = > 1000 nM
SMILES = Cc1[nH]c2ccccc2c1CCNCc1ccc(/C=C/C(=O)NO)cc1; test = cell viability, CellTiter-Glo; setting = 72 h; quantity = IC50; result = < 20 nM
SMILES = C=CC(=O)N1CCC[C@@H]1Cn1c(NC(=O)c2ccc(C(F)F)s2)nc2cc(CN[C@@H](C)C(C)(C)C)ccc21; test = IL-2 production, AlphaLISA; setting = 18 h, with: anti-CD3/CD28; quantity = IC50; result = 8.7 ± 2.1 nM
SMILES = C=CCN(/C=C1/C(=O)O[C@H](COC)[C@@]2(C)C1=C(O)C(=O)C1=C2[C@H](OC(C)=O)C[C@]2(C)C(=O)CC[C@@H]12)CC=C; test = T cell expansion, resazurin; setting = 7 days, with: concanavalin A 2 µg/mL; quantity = EC50; result = 1200 nM

Some of these lines once more:
SMILES = N#CC(=C(/N)Sc1ccccc1N)/C(C#N)=C(/N)Sc1ccccc1N; test = T cell expansion, resazurin; setting = 7 days, with: concanavalin A 2 µg/mL; quantity = EC50; result = 1920 nM
SMILES = Nc1nc2ccccc2c2c1nc(CCCc1nc3c(N)nc4ccccc4c3n1Cc1ccccc1)n2Cc1ccccc1; test = cytokine and chemokine release, antagonist; setting = 12 h, with: CL075 10 µg/mL; quantity = IC50; result = 50 to 300 nM
